Measured values from different studies.
Protocols differ between the studies behind these lines. “And” joins repeats or separate records; there may be more than shown. Numbers after ± are the reported error.
Lysophospholipase-like protein 1: Lysophospholipase-like protein 1 (Mus musculus, UniProt Q3UFF7)
Grm2: Metabotropic glutamate receptor 2 (Grm2, Rattus norvegicus, UniProt P31421)
MIPEP: Mitochondrial intermediate peptidase (MIPEP, Homo sapiens, UniProt Q99797)
KDM4E: Lysine-specific demethylase 4E (KDM4E, Homo sapiens, UniProt B2RXH2)
E3 ubiquitin-protein ligase NEDD4: E3 ubiquitin-protein ligase NEDD4 (Homo sapiens, UniProt P46934)
RPA1 N-terminal domain: Replication protein A 70 kDa DNA-binding subunit, N-terminal domain (RPA1, Homo sapiens, UniProt P27694)
GRM4: Metabotropic glutamate receptor 4 (GRM4, Homo sapiens, UniProt Q14833)
GLP1R: Glucagon-like peptide 1 receptor (GLP1R, Homo sapiens, UniProt P43220)

By UniProt entry, the sequences of proteins in these tests, tags left out. Where a name states a change or a piece, a line headed by the entry shows the natural chain unless it says otherwise. Residues count along the entry.
UniProt P31421, 19-872 limits assumed: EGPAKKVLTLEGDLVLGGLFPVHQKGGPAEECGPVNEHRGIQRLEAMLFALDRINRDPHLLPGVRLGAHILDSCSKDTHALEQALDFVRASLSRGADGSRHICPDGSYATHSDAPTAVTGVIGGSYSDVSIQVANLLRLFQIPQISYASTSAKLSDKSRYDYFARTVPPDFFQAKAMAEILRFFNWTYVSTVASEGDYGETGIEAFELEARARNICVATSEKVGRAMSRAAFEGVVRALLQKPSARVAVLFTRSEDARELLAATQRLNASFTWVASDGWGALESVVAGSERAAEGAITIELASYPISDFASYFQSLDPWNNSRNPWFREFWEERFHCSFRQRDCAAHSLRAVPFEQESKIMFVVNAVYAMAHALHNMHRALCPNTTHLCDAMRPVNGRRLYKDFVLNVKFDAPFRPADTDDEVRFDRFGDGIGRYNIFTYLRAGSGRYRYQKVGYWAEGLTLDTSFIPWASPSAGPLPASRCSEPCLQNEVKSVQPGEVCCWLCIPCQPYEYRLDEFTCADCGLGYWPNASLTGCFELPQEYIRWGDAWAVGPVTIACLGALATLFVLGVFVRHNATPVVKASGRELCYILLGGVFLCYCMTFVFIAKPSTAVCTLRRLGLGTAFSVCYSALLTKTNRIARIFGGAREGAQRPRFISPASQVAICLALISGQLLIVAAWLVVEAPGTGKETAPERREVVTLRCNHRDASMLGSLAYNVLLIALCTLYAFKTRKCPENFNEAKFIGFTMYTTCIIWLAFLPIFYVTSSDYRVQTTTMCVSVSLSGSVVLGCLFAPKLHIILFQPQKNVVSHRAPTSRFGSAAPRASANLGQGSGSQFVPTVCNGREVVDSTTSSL
UniProt Q99797, 36-713 limits assumed: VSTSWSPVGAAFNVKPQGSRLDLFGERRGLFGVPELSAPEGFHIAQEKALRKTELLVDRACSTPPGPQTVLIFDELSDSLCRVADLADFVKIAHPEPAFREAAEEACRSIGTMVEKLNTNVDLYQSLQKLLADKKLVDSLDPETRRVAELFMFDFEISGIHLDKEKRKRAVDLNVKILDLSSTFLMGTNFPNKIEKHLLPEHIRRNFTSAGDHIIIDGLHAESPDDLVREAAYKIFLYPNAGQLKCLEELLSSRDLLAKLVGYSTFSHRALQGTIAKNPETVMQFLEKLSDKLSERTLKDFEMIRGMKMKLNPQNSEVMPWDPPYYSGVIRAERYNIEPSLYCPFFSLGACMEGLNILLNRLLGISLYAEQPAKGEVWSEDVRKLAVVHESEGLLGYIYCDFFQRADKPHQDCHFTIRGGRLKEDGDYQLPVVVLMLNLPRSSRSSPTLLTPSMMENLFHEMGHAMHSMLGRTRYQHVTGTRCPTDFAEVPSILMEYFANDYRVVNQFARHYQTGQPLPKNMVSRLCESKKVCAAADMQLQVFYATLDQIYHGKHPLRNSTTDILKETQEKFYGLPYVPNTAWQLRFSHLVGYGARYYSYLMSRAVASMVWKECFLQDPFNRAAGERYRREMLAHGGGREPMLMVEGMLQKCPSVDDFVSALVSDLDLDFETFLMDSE
UniProt B2RXH2, whole entry: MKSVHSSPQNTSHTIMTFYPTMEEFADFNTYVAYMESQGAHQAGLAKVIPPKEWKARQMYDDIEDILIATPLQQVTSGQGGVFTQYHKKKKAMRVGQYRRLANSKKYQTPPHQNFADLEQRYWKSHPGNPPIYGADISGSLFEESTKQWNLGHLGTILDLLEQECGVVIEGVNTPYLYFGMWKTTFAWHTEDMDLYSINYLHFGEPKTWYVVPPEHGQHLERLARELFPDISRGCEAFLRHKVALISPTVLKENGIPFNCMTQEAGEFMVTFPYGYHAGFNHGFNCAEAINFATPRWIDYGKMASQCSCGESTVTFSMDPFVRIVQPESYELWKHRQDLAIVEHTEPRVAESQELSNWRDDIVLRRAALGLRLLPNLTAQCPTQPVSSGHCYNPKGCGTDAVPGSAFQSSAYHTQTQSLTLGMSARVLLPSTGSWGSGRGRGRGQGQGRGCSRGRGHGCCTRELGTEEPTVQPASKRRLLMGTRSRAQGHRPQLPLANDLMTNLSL
UniProt P46934, whole entry, looked up: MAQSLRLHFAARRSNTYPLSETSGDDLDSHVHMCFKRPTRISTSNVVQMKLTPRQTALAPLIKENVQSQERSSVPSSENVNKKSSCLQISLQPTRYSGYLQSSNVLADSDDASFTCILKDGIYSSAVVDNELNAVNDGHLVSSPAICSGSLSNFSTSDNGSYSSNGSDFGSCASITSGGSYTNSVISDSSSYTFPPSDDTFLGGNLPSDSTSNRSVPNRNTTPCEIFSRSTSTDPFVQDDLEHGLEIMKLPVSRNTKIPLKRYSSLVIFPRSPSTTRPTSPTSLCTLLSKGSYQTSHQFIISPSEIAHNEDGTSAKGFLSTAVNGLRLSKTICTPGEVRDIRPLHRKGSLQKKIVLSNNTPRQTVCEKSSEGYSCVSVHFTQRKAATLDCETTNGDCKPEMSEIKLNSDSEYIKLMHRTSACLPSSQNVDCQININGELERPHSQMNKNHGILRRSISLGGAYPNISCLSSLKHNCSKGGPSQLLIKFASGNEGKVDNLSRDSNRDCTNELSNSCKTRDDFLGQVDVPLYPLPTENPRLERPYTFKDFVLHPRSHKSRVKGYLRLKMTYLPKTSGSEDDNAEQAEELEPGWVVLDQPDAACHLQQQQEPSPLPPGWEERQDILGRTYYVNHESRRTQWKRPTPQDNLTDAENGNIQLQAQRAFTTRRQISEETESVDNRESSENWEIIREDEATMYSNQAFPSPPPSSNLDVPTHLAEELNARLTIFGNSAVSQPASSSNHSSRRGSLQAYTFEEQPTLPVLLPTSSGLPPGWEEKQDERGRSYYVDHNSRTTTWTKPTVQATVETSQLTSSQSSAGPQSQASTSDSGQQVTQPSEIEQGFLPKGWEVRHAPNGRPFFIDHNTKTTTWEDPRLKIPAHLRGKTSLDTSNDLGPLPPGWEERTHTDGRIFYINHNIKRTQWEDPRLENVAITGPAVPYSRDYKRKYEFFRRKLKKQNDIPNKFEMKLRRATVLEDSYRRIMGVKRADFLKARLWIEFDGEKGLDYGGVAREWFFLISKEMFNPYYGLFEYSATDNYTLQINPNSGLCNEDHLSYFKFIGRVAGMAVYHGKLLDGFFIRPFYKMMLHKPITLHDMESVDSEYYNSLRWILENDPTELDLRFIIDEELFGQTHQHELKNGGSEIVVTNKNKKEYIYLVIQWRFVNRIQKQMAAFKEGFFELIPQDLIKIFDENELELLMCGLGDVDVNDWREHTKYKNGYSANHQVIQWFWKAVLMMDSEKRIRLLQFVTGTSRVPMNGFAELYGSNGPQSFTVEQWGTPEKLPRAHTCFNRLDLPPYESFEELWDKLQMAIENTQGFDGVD
UniProt Q14833, 33-912 limits assumed: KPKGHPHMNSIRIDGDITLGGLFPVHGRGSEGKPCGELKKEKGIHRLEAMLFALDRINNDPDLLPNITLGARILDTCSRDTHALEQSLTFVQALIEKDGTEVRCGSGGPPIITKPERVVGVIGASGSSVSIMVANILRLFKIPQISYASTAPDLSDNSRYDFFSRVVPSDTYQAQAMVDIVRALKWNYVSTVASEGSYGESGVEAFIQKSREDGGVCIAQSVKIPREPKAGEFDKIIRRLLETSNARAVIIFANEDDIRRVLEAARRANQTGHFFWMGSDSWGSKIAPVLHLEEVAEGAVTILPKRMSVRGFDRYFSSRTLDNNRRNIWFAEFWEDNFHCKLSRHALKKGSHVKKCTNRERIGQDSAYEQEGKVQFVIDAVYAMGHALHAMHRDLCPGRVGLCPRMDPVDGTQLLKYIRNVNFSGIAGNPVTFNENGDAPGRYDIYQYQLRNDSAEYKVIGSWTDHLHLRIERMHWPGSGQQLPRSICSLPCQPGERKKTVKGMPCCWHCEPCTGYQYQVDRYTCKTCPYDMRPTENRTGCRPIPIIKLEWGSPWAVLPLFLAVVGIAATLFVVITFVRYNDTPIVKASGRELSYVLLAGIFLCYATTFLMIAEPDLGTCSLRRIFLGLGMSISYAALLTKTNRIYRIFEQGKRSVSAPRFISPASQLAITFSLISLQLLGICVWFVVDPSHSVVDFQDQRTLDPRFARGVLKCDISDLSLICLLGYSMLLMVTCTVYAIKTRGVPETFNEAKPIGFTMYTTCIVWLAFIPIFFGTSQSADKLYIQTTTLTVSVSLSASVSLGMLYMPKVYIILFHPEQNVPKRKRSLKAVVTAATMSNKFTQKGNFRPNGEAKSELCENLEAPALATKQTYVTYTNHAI
UniProt P43220, whole entry, looked up: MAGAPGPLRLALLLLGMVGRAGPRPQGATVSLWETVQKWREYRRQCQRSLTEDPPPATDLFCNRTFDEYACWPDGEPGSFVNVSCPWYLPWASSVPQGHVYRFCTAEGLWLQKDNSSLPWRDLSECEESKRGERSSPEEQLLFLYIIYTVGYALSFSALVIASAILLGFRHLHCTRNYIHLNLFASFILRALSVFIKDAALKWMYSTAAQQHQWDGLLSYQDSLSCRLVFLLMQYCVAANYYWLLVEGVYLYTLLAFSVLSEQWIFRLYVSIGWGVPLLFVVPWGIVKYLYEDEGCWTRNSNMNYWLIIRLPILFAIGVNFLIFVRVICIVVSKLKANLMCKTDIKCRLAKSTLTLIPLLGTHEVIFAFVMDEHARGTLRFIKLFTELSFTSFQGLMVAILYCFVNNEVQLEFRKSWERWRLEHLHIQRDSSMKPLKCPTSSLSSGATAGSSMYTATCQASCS
UniProt Q923Y8, whole entry T268M/Y287N: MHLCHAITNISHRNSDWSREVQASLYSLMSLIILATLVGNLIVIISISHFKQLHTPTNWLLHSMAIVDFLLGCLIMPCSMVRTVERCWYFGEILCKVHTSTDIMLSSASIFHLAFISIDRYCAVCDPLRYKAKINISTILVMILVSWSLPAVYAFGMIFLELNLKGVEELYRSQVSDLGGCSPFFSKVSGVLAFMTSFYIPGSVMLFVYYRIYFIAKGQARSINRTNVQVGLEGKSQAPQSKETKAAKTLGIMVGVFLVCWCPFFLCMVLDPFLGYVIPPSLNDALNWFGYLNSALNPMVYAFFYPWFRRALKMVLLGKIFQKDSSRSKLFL
UniProt P05067, 672-713 limits assumed: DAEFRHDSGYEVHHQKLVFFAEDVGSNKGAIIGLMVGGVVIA
UniProt P00491, whole entry: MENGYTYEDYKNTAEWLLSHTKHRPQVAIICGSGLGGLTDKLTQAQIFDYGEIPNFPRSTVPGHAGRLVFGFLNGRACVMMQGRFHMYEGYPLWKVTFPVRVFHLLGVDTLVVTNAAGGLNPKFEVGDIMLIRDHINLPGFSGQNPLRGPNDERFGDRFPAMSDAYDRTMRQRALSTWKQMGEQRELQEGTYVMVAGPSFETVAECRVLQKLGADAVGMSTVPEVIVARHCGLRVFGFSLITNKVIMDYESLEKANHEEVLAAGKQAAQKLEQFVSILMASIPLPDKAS
UniProt Q5VWZ2, whole entry: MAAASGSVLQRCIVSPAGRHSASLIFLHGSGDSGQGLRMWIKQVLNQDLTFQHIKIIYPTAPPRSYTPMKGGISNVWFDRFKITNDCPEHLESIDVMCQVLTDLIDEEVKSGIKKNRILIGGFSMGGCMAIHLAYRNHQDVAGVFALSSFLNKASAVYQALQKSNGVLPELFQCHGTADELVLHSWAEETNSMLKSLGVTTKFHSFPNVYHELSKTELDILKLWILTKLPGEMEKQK
UniProt P08238, 1-221 limits assumed: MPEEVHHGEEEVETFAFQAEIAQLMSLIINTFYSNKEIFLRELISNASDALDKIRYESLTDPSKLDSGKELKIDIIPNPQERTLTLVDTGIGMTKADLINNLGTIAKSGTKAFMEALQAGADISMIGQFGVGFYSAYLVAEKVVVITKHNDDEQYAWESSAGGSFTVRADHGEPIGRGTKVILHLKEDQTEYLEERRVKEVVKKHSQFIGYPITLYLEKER
UniProt P30291, whole entry, looked up: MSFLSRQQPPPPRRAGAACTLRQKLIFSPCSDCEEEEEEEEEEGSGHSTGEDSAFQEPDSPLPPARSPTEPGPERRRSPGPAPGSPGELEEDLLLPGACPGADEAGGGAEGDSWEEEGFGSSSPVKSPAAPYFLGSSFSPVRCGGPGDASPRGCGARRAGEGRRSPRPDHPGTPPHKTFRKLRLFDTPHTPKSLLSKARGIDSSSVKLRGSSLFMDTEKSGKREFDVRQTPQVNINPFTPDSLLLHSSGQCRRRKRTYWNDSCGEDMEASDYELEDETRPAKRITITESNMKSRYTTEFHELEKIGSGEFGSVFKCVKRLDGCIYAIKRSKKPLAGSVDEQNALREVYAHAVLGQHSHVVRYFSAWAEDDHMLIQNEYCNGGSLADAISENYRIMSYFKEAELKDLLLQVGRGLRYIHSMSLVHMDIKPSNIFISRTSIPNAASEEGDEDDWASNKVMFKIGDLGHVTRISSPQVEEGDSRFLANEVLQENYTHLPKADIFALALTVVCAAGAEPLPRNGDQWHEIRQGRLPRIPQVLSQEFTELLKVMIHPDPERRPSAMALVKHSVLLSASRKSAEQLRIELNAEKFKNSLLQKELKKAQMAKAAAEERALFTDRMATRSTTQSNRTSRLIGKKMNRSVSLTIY

Compound	target or system	test	test system	conditions	scale	endpoint	value
Cn1c(=O)oc2ccc(S(=O)(=O)n3nc(SCc4ccc(Cl)cc4)nc3N)cc21	Lysophospholipase-like protein 1	activator, gel-based ABPP FP-rhodamine			baseline: DMSO	probe labelling	2.4 fold
Cc1cccc(-c2noc(-c3cn(CC(=O)NCc4ccc5c(c4)OCO5)c4nc(C)ccc4c3=O)n2)c1	Catenin beta-1, residues 141-305 (CTNNB1, Homo sapiens, UniProt P35222)	isothermal titration calorimetry		concentration not given, 25 °C		entropy change	18.9 cal/(mol·K)
NC(=O)c1cn(-c2ccc(F)cc2)c2ccc(NCCc3ccncc3)cc2c1=O	Grm2	calcium mobilization, negative allosteric modulator		30 µM, together with: glutamate 100 µM	baseline: glutamate maximum	response	2.01 ± 0.4%
CC(C)C[C@H](NC(=O)[C@H](CCC(N)=O)NC(=O)[C@@H](NC(=O)[C@H](CCCCN)NC(=O)[C@H](CC(N)=O)NC(=O)[C@H](CCC(N)=O)NC(=O)[C@H](CC(C)C)NC(=O)[C@@H]1CCCN1C(=O)[C@H](CCC(N)=O)NC(=O)CNC(=O)[C@H](CO)NC(=O)[C@H](CCCNC(=N)N)NC(=O)[C@H](Cc1ccccc1)NC(=O)c1ccccc1N)C(C)C)C(=O)N[C@@H](CCC(N)=O)C(=O)NCCNc1ccc([N+](=O)[O-])cc1[N+](=O)[O-]	MIPEP	substrate, FRET peptide hydrolysis				kcat/Km	130000 M⁻¹ s⁻¹
O=C(O)c1ccccc1Nc1c(C(=O)O)ccnc1C(=O)O	KDM4E	inhibitor, FDH-coupled spectrophotometry, measured: formaldehyde		200 µM		remaining activity	39%
NC(=O)c1cccc(S(=O)(=O)n2nc(CCCc3ccc(Cl)cc3)nc2N)c1	Lysophospholipase-like protein 1	activator, gel-based ABPP FP-rhodamine			baseline: DMSO	probe labelling	1.1 fold
NCC(c1ccc(O)cc1)c1ccc(Oc2ccccc2)cc1 (stereo not drawn)	Taar1 (Mus musculus, UniProt Q923Y8, T268M/Y287N)	cAMP production, agonist		double mutant	baseline: wild type	efficacy increase	39 to 95%
CC(=O)N[C@@H](C)C(=O)N[C@@H](CC(C)C)C(=O)N[C@H](C(=O)N[C@@H](CO)C(=O)N[C@@H](CCCNC(=N)N)C(=O)Nc1ccc2c(CC(N)=O)cc(=O)oc2c1)C(C)C	MALT1 (Homo sapiens, UniProt Q9UDY8)	substrate, fluorogenic peptide hydrolysis		pH 7.5, enzyme 399 nM, citrate 0.9 M		kcat/Km	8400 M⁻¹ s⁻¹
COc1cc([C@@H]2c3cc4c(cc3C=C(C=O)[C@H]2C(=O)OCCCCCCBr)OCO4)cc(OC)c1OC	Leishmania infantum	iRFP fluorescence	mouse splenocytes infected, amastigote, iRFP, ex vivo splenic explant	48 h		EC50	18.1 ± 0.1 µM
CCOC(=O)/C=C/CNCCCN1c2ccccc2CCc2ccc(Br)cc21	E3 ubiquitin-protein ligase NEDD4	inhibitor, Ub-TR-FRET		0.04572 µM, 1 h preincubation, HECT domain, together with: ATP 2 mM	higher = more ubiquitination	ubiquitination TR-FRET signal AUC	144000 a.u. and 142000 a.u. and 147000 a.u.
CC(C)c1ccc(C(=O)Nc2ccccc2C(=O)O)cc1S(=O)(=O)Nc1ccc(Cl)c(Cl)c1	RPA1 N-terminal domain	binding, fluorescence polarisation competition		together with: FITC-ATRIP probe		ligand efficiency	0.22
O=C(/C=C/c1ccc(O)c(OC(F)(F)F)c1)C(CCOCCOC1CCCCO1)C(=O)/C=C/c1ccc(O)c(OC(F)(F)F)c1 (stereo not drawn)	APP (Homo sapiens, UniProt P05067)	SDS-PAGE western blot, measured: Aβ1-42 species 75-200 kDa		30 µM, 24 h, 37 °C, together with: Aβ 10 µM	baseline: DMSO control	Aβ band density	1860 ± 227%
CCOC(=O)/C=C/CNCCCN1c2ccccc2CCc2ccc([N+](=O)[O-])cc21	E3 ubiquitin-protein ligase NEDD4	inhibitor, Ub-TR-FRET		33.33 µM, 1 h preincubation, HECT domain, together with: ATP 2 mM	higher = more ubiquitination	ubiquitination TR-FRET signal AUC	29600 a.u. and 29100 a.u. and 41600 a.u.
O=C(O)c1cc(C(=O)N[C@@H](CS)C(=O)O)cc([C@H]2CCN[C@@H]2C(=O)O)c1	Grik2 (Rattus norvegicus, UniProt P42260)	radioligand binding	Sf9 membranes	10 µM, homomeric receptor, together with: [3H]kainate		specific binding	88 ± 6%
COc1ccc(NC(=O)CN2CCCN(S(=O)(=O)c3sc(C)nc3C)CC2)c(OC)c1	GRM4	calcium mobilization, positive allosteric modulator	CHO cells with Gqi5	together with: glutamate	baseline: PHCCC maximal response	maximal response	47.7 ± 2.1%
O=C(OC(C(F)(F)F)C(F)(F)F)N1CC[C@@H](OC(c2ccc(F)cc2)c2ccc(F)cc2)C1	FAAH (Homo sapiens, UniProt O00519)	enzyme activity, inhibitor, fluorescence AAMCA substrate		1 µM		activity	inactive
CCOC(=O)/C=C/CNCCCN1c2ccccc2CCc2ccccc21	E3 ubiquitin-protein ligase NEDD4	inhibitor, Ub-TR-FRET		1.235 µM, 1 h preincubation, HECT domain, together with: ATP 2 mM	higher = more ubiquitination	ubiquitination TR-FRET signal AUC	117000 a.u. and 122000 a.u. and 121000 a.u.
C[C@H]1N[C@@H](c2c[nH]c3c(=O)[nH]cnc23)[C@H](O)[C@@H]1O	PNP (Homo sapiens, UniProt P00491)	isothermal titration calorimetry		concentration not given, pH 7.4, 27 °C, first subunit, together with: phosphate 50 mM		binding enthalpy ΔH	-8.5 ± 0.2 kcal/mol

Compound	target or system	test	test system	conditions	scale	endpoint	value
Cc1cc(NC(=O)c2cccc(NC(=O)C3=CC(C)(C)CC3=O)c2)ccc1Nc1nccc(-c2cccnc2)n1	MAPK8 (Homo sapiens, UniProt P45983, C116S)	surface plasmon resonance		100, 300, 1000 nM, 1:1 binding model		koff	0.0412 s⁻¹
Cc1ccc(NC(=O)c2ccc(CN3CCC(N(C)C)C3)c(C(F)(F)F)c2)cc1N1Cc2cnc(Nc3cnn(C)c3)nc2N(C)C1=O (stereo not drawn)	FGFR4/Transcription factor ETV6 (Homo sapiens, UniProt P22455+P41212)	cell proliferation	Ba/F3 TEL-FGFR4	72 h		GI50	0.019 µM
CCN(Cc1cccnc1)c1ccc2c(c1)c(=O)c(C(N)=O)cn2-c1ccc(F)cc1	Grm2	calcium mobilization, negative allosteric modulator		30 µM, together with: glutamate 100 µM	baseline: glutamate maximum	response	2.36 ± 0.14%
O=[N+]([O-])c1ccc(/C=C/c2c[nH]c3ccc(F)cc23)c(F)c1	Amyloid-beta precursor protein, Aβ1-40 (APP, Homo sapiens, UniProt P05067)	Aβ40 aggregation, thioflavin T fluorescence		25 µM		inhibition	82%
Nc1nc(SCc2ccc(Cl)cc2)nn1S(=O)(=O)c1cccc2nonc12	LYPLAL1 (Homo sapiens, UniProt Q5VWZ2)	activator, gel-based ABPP	purified protein		baseline: DMSO	FP-rhodamine labelling	3 fold
COc1ccc(NC(=O)CN2CCCN(S(=O)(=O)Cc3ccccc3)CC2)c(OC)c1	GRM4	calcium mobilization, positive allosteric modulator	CHO cells with Gqi5	together with: glutamate	baseline: PHCCC maximal response	maximal response	46.5%
Cc1[nH]c2cc(Cl)cc(Cl)c2c1CCn1cc(CCCN)nn1	GLP1R	cAMP accumulation, positive allosteric modulator, HTRF		0.6 µM, purified compound, together with: GLP-1(9-36) at EC20	baseline: BETP	Emax	101 ± 8%
Cc1ccc(C(=O)Nc2ccc(F)cc2C(=O)O)cc1S(=O)(=O)Nc1ccc(Cl)c(Cl)c1	RPA1 N-terminal domain	binding, fluorescence polarisation competition		together with: FITC-ATRIP probe		ligand efficiency	0.21
CCS(=O)(=O)c1nc(-c2ccc(F)cc2)cc(C(F)F)n1	Secretin receptor (SCTR, Homo sapiens, UniProt P47872)	binding, TR-FRET competition binding	HEK293 cell membranes	together with: fluorescent secretin 6 nM		Emax	no effect
Nc1ncnc2c1ccn2[C@@H]1O[C@H](COc2ccc3cc(Br)cnc3c2)[C@@H](O)[C@H]1O	Protein arginine N-methyltransferase 5, with MEP50 (PRMT5, Homo sapiens, UniProt O14744)	SPR				ka	3.47e+06 M⁻¹ s⁻¹
CC(C)[C@H](NC(=O)c1ccccc1N)C(=O)N[C@@H](C)C(=O)N[C@@H](C)C(=O)N[C@@H](CCC(N)=O)C(=O)N[C@H](C(=O)N[C@@H](CCCCN)C(=O)N[C@H](C(=O)N[C@@H](CCCCNc1ccc([N+](=O)[O-])cc1[N+](=O)[O-])C(N)=O)[C@@H](C)O)[C@@H](C)O	MIPEP	substrate, FRET peptide hydrolysis				kcat/Km	5000 M⁻¹ s⁻¹
CC(=O)Nc1ncc(CN2CC[C@H](Oc3cccc(F)n3)C[C@@H]2C)s1 [isotope labelled]	Protein O-GlcNAcase (Rattus norvegicus, UniProt Q8VIJ5)	saturation binding	rat striatum homogenate	radiolabelled compound		Bmax	32 ± 9.6 nM
C/C=C/Cn1c(Cc2cc(OC)c(OC)c(OC)c2)nc2c(N)ncnc21	Heat shock protein HSP 90-beta, N-terminal domain (HSP90AB1, Homo sapiens, UniProt P08238)	isothermal titration calorimetry, one-site model		concentration not given, 298 K		binding stoichiometry	0.79 ± 0.01
Cc1[nH]c2cc(Cl)cc(Cl)c2c1CCn1cc(C2(O)COC2)nn1	GLP1R	cAMP accumulation, positive allosteric modulator, HTRF		0.6 µM, purified compound, together with: GLP-1(9-36) at EC20	baseline: BETP	Emax	118 ± 5%
CC(=O)N[C@@H](CCC(N)=O)C(=O)N[C@H](C(=O)N[C@@H](C)C(=O)N[C@@H](CCCNC(=N)N)C(=O)N[C@@H](CCCCNC(=O)CCc1ccc(N=Nc2ccc(N(C)C)cc2)cc1)C(=O)N[C@@H](CO)C(=O)N[C@H](C(=O)NCC(=O)NCC(=O)NCCCNC(=S)Nc1ccc2c(c1)C(=O)OC21c2ccc(O)cc2Oc2cc(O)ccc21)[C@@H](C)O)[C@@H](C)O	SIRT2 (Homo sapiens, UniProt Q8IXJ6)	enzyme activity, substrate, plate reader kinetics		24 nM enzyme, together with: 500 µM NAD+		kcat	0.0024 ± 8e-05 s⁻¹
O=C1CCC(N2Cc3cc(-c4nc5ccccn5c4NC45CC6CC(CC(C6)C4)C5)ccc3C2=O)C(=O)N1 (stereo not drawn)	WEE1/CRBN (Homo sapiens, UniProt P30291+Q96SW2)	degrader, HiBiT	MOLM-14	5 h		Dmax	88%
O=C(O)c1ccnc(C(=O)O)c1Nc1ccc(F)cc1F	KDM4E	inhibitor, FDH-coupled spectrophotometry, measured: formaldehyde		200 µM		remaining activity	12%
Cc1cc(NC(=O)c2cccc(NC(=O)C3=CC(C)(C)CCC3=O)c2)ccc1Nc1nccc(-c2cccnc2)n1	MAPK8 (Homo sapiens, UniProt P45983)	kinase activity, inhibitor		0.5487 µM, unit not given, together with: 10 mM GSH	baseline: DMSO	remaining activity	0.577

A few entries again:
Compound	target or system	test	test system	conditions	scale	endpoint	value
CC(=O)Nc1ncc(CN2CC[C@H](Oc3cccc(F)n3)C[C@@H]2C)s1 [isotope labelled]	Protein O-GlcNAcase (Rattus norvegicus, UniProt Q8VIJ5)	saturation binding	rat striatum homogenate	radiolabelled compound		Bmax	32 ± 9.6 nM
CC(=O)N[C@@H](CCC(N)=O)C(=O)N[C@H](C(=O)N[C@@H](C)C(=O)N[C@@H](CCCNC(=N)N)C(=O)N[C@@H](CCCCNC(=O)CCc1ccc(N=Nc2ccc(N(C)C)cc2)cc1)C(=O)N[C@@H](CO)C(=O)N[C@H](C(=O)NCC(=O)NCC(=O)NCCCNC(=S)Nc1ccc2c(c1)C(=O)OC21c2ccc(O)cc2Oc2cc(O)ccc21)[C@@H](C)O)[C@@H](C)O	SIRT2 (Homo sapiens, UniProt Q8IXJ6)	enzyme activity, substrate, plate reader kinetics		24 nM enzyme, together with: 500 µM NAD+		kcat	0.0024 ± 8e-05 s⁻¹
